Published values from different studies.
Compare with care: the assays were run in different laboratories. “And” joins repeats or separate records; there may be more than shown. ± gives the spread as reported.

For CN1CCC[C@]1(C)/C=C/S(=O)(=O)NC(=O)Nc1c2c(cc3c1CCC3)CCC2, the IL-18 inhibition was -22.5% (human, whole blood ex vivo; 12.5 mg twice daily, day 14, 24 h, multiple ascending dose, with: LPS and ATP).
CN1CCCNC(=O)c2cccc(c2)C(=O)NCCCN(C)CCCNc2cccc3c2C(=O)c2cccc(c2C3=O)NCCC1 has a tumour volume of 205 mm3 and 332 mm3 and 198 mm3 and 389 mm3 and 267 mm3 (KSN/Slc nude mice, SAS xenograft; dose not given, day 10, 240 h).
CC(C)C[C@H](NC(=O)[C@H](CC(=O)O)NC(=O)CNC(=O)[C@@H](N)CCCNC(=N)N)C(=O)N[C@@H](C)C(=O)N[C@H](C(=O)N[C@@H](CC(C)C)C(=O)N[C@@H](CCCNC(=N)N)C(=O)N[C@@H](CCC(N)=O)C(=O)N[C@@H](CC(C)C)C(=O)N[C@@H](C)C(=O)N[C@@H](CCC(N)=O)C(=O)N[C@@H](CCC(=O)O)C(=O)N[C@@H](CC(=O)O)C(=O)NCC(=O)N[C@H](C(=O)N[C@H](C(=O)NCC(=O)N[C@H](C(=O)N[C@@H](CCCNC(=N)N)C(=O)NCCOCCOCCOCCOCCOCCOCCOCCOCCOCCOCCOCCOCCC(=O)N[C@@H](CS)C(N)=O)C(C)C)C(C)C)C(C)C)[C@@H](C)O: “fluorescence signal ratio” 0.041 and 0.057 and 0.012 (ex vivo NIR imaging; NOD/SCID mice, xenograft, H460 xenograft; intravenous, 30 µg, 24 h; relative to: liver).
COC1OC(C)C(OC2OC(C)C(OS(=O)(=O)O)C(OC3OC(C)C(OC4OC(C)C(OS(=O)(=O)O)C(OC5OC(C)C(OC6OC(C)C(OS(=O)(=O)O)C(OC7OC(C)C(OS(=O)(=O)O)C(OS(=O)(=O)O)C7O)C6O)C(OS(=O)(=O)O)C5O)C4O)C(OS(=O)(=O)O)C3O)C2O)C(OS(=O)(=O)O)C1O (centres unmarked) gave a prothrombin time of 15.2 ± 0.8 s (human plasma; 128 µg/mL).
COc1cc([C@@H](O)[C@H](O)CO)ccc1O has an IC50 of 7.16 µg/mL (ABTS scavenging).
For COC1OC(C)C(O)C(OC2OC(C)C(O)C(OC3OC(C)C(O)C(OC4OC(C)C(O)C(OC5OC(C)C(O)C(OC6OC(C)C(O)C(OC7OC(C)C(O)C(OC8OC(C)C(O)C(OC9OC(C)C(O)C(OS(=O)(=O)O)C9OS(=O)(=O)O)C8OS(=O)(=O)O)C7OS(=O)(=O)O)C6OS(=O)(=O)O)C5OS(=O)(=O)O)C4OS(=O)(=O)O)C3OS(=O)(=O)O)C2OS(=O)(=O)O)C1OS(=O)(=O)O (centres unmarked), the prothrombin time was 15.1 ± 0.7 s (human plasma; 128 µg/mL).
The ΔTm of CC[n+]1cccc2cc(/C=N/NC(=O)c3ccc4ccc(C(=O)N/N=C/c5ccc6c(ccc[n+]6CC)c5)nc4n3)ccc21 is reported as 0.9 ± 0.1 °C (hp2 hairpin duplex DNA; FRET melting; 1 µM, with: ds26 10 µM).
The hematocrit of Cc1cnc2nc1Nc1cccc(c1)COC/C=C/COCc1cc(ccc1OCCN1CCOCC1)N2 is reported as 49.4% and 51.4% and 51% and 49.6% and 51.1% and 45.9% (BALB/c mice rhEPO-induced polycythemia; 75 mg/kg).
COC1OC(C)C(OS(=O)(=O)O)C(OC2OC(C)C(OS(=O)(=O)O)C(OC3OC(C)C(OS(=O)(=O)O)C(OC4OC(C)C(OS(=O)(=O)O)C(OC5OC(C)C(OS(=O)(=O)O)C(OC6OC(C)C(OS(=O)(=O)O)C(OC7OC(C)C(OS(=O)(=O)O)C(OS(=O)(=O)O)C7OS(=O)(=O)O)C6OS(=O)(=O)O)C5OS(=O)(=O)O)C4OS(=O)(=O)O)C3OS(=O)(=O)O)C2OS(=O)(=O)O)C1OS(=O)(=O)O (centres unmarked) — result for “prothrombin time prolongation”: 1.01 fold (human plasma; 128 µg/mL; relative to: control).
For COc1cc(O)ccc1CCC(c1ccc(O)cc1)c1cc2c(c(C)c1O)OC(c1ccc(O)cc1)CC2 (mixture of isomers), the amount was 2600 ± 584 pg/mL blood (refers to: 5-HETE; human whole blood; 0.3 µM, with: Escherichia coli).
CC(=O)[O-].O.O.O.O.[Co+2].[O-]c1ccc(Br)cc1C=NCCN1CCOCC1 gave an inhibition of 64.2% (DPPH radical scavenging; 200 µM).
Under “prothrombin time prolongation”, COC1OC(C)C(OC2OC(C)C(OS(=O)(=O)O)C(OC3OC(C)C(OC4OC(C)C(OS(=O)(=O)O)C(OC5OC(C)C(OC6OC(C)C(OS(=O)(=O)O)C(OS(=O)(=O)O)C6OS(=O)(=O)O)C(OS(=O)(=O)O)C5OS(=O)(=O)O)C4OS(=O)(=O)O)C(OS(=O)(=O)O)C3OS(=O)(=O)O)C2OS(=O)(=O)O)C(OS(=O)(=O)O)C1OS(=O)(=O)O (centres unmarked) is recorded as 1.03 fold (human plasma; 128 µg/mL; relative to: control).
Under “liver weight decrease”, CC(C)NCC(SS(=O)(=O)O)c1ccccc1 (centres unmarked) is recorded as 31% (Swiss Webster mice, Schistosoma mansoni infected; 100 mg/kg; relative to: vehicle control).
COC1OC(C)C(OC2OC(C)C(OS(=O)(=O)O)C(OC3OC(C)C(OS(=O)(=O)O)C(OS(=O)(=O)O)C3O)C2O)C(OS(=O)(=O)O)C1O (centres unmarked): “prothrombin time prolongation” 1.01 fold (human plasma; 128 µg/mL; relative to: control).
Under VISTA expression, CN[C@H]1CCN(C(=O)c2c(C)cc(C(F)(F)F)nc2-c2ccnc3cc(CN4C(=O)C5C(C4=O)C5(C)C)sc23)C1 (some centres unmarked) is recorded as “no effect” (flow cytometry; splenic CD11b+ myeloid, CD11c+MHC-II+ dendritic cells, B16F10 tumour-bearing mouse; dose not given).
COC1OC(C)C(OC2OC(C)C(O)C(OC3OC(C)C(OC4OC(C)C(O)C(OC5OC(C)C(OC6OC(C)C(O)C(OC7OC(C)C(OC8OC(C)C(O)C(OC9OC(C)C(OC%10OC(C)C(O)C(OS(=O)(=O)O)C%10OS(=O)(=O)O)C(OS(=O)(=O)O)C9OS(=O)(=O)O)C8OS(=O)(=O)O)C(OS(=O)(=O)O)C7OS(=O)(=O)O)C6OS(=O)(=O)O)C(OS(=O)(=O)O)C5OS(=O)(=O)O)C4OS(=O)(=O)O)C(OS(=O)(=O)O)C3OS(=O)(=O)O)C2OS(=O)(=O)O)C(OS(=O)(=O)O)C1OS(=O)(=O)O (centres unmarked) gave a prothrombin time of 14.8 ± 0.1 s (human plasma; 128 µg/mL).
The ΔTm of O=C(N/N=C/c1ccc2c(ccc[n+]2Cc2ccccc2)c1)c1ccc2ccc(C(=O)N/N=C/c3ccc4c(ccc[n+]4Cc4ccccc4)c3)nc2n1 is reported as 1.3 ± 0.6 °C (hp2 hairpin duplex DNA; FRET melting; 1 µM).
CCOC(=O)CCCCC1NCCc2cc(O)c(O)cc21 (centres unmarked) gave an IC50 of 19.3 µM (ABTS scavenging; 10 min, dark).
For COc1cc2c(NC3CCN(C(C)C)CC3)cc(N3CCOCC3)nc2cc1OCCCN1CCCC1, “log2 fold change” read -0.0568 (TMT proteomics, refers to: THY1; 5xFAD mice, hippocampus; dose not given; relative to: wild-type mice).
With COc1cc(/C=C2\CN(C)C/C(=C\c3cc(Cl)c(O)c(OC)c3)C2=O)cc(Cl)c1O the IC50 was 197 µg/mL (ABTS scavenging; 20 min).
COC(=O)C1CN1S(=O)(=O)c1ccc2cc(C)ccc2c1 (centres unmarked): “tumour growth inhibition” 58% (mouse, Lewis lung carcinoma; ip, 100 mg/kg, 384 h).
COC1OC(C)C(O)C(OC2OC(C)C(O)C(OS(=O)(=O)O)C2OS(=O)(=O)O)C1OS(=O)(=O)O (centres unmarked) — result for “prothrombin time prolongation”: 1.02 fold (human plasma; 128 µg/mL; relative to: control).
OCC1OC(n2cnc3c(NCc4ccc(Br)s4)ncnc32)C(O)C1O (centres unmarked): “brain inosine level” “increased” (mouse; oral, 3 mg/kg, 2 h).
COC1OC(C)C(OC2OC(C)C(OS(=O)(=O)O)C(OC3OC(C)C(OC4OC(C)C(OS(=O)(=O)O)C(OC5OC(C)C(OS(=O)(=O)O)C(OS(=O)(=O)O)C5OS(=O)(=O)O)C4OS(=O)(=O)O)C(OS(=O)(=O)O)C3OS(=O)(=O)O)C2OS(=O)(=O)O)C(OS(=O)(=O)O)C1OS(=O)(=O)O (centres unmarked) has a prothrombin time of 15.8 ± 0.4 s (human plasma; 128 µg/mL).
With NC[C@@H](C(=O)Nc1ccc(-c2cn[nH]c2)cc1)c1ccccc1 the IOP was 28.4 mmHg (tonometry; NZW rabbit, magnetic bead-induced ocular hypertension; ocular, 0.1%, 30 h).
For C[C@@H](Nc1c(-c2c(F)cc(C#N)cc2F)c(Cl)nc2ncnn12)C(C)(C)C, the reduction was ~50% (immunoblot, refers to: insoluble AT8 phospho-tau; male PS19 tau transgenic mice, brain; intraperitoneal, 3 mg/kg twice weekly, 3 months; relative to: vehicle).
For COC1CN([C@H]2CC[C@H]([C@@]3(C)Oc4c(Cl)cc(C(=O)NCc5c(SC)cc(C)[nH]c5=O)c(C)c4O3)CC2)C1, “log2 fold change” read 1.22 (RNA-seq, refers to: TBC1D12; human, whole blood; dose not given, 24 h; relative to: pretreatment baseline).
Cc1cn(-c2cc(NC(=O)c3cc(C#Cc4cnc5c(Nc6cnn(C)c6)cccn45)c(C)cc3F)cc(C(C)(C)C#N)c2)cn1 gave a lag time of 160 s (platelet aggregation; platelet-rich plasma; 1 µM, DMSO 130.6, with: collagen 2 mg/mL).
For CC(C)(C)NCC(SS(=O)(=O)O)c1ccccc1 (centres unmarked), the spleen weight was 0.41 g (Swiss Webster mice, Schistosoma mansoni-infected; 600 mg/kg single dose on day 1 post-infection, perfusion day 44 post-infection).
